Measurements gathered from unrelated publications.
Numbered parts are unrelated; each lists some results of a single study.

Sample 1
Target: Sal-like protein 4, full length isoform A (SALL4, Homo sapiens, UniProt Q9UJQ4, residues 1-1053)
Sequence of UniProt Q9UJQ4 (whole entry, looked up): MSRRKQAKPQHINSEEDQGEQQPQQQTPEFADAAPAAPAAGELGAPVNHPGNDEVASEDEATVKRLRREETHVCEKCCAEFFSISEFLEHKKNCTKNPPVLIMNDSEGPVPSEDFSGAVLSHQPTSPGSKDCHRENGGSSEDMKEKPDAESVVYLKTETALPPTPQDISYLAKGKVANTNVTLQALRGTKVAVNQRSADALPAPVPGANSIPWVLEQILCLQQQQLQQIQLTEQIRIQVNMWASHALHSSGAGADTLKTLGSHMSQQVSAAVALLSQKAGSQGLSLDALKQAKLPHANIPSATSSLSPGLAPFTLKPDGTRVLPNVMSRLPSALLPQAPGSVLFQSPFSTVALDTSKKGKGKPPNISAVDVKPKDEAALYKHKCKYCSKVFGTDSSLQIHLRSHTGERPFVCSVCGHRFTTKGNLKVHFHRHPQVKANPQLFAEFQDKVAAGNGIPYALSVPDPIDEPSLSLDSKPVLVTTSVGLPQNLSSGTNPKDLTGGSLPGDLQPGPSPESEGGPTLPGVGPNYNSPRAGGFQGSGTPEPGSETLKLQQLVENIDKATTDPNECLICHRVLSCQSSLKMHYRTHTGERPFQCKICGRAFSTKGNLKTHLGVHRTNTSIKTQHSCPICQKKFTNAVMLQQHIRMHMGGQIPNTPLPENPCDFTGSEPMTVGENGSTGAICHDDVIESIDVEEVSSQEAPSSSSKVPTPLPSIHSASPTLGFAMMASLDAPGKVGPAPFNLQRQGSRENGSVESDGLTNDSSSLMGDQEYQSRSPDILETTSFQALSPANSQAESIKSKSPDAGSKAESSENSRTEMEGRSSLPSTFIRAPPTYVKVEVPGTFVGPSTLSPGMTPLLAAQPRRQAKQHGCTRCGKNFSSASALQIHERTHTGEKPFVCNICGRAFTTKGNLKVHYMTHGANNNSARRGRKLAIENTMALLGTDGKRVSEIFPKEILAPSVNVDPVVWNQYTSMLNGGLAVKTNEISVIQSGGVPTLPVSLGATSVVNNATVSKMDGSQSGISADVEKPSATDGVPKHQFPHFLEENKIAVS
Technique: universal PBM
Form: double-stranded DNA, one strand shown
Matrix: in vitro
Tested at: 600 nM
Notes: 8-mer, flanks averaged, mean of replicates
Direction: higher = stronger binding
`CCTTATGA` has an E-score of 0.15.
The E-score of `CGGAGATC` is reported as -0.259.
`AGGTGCAG` gave an E-score of -0.23.

Sample 2
Target: Histone acetyltransferase KAT6A, winged helix 2, GST fusion (KAT6A, Homo sapiens, UniProt Q92794, residues 85-181)
Technique: protein binding microarray
Form: double-stranded DNA, one strand shown
Matrix: in vitro
Tested at: not given
Notes: 8-mer, flanks averaged, mean of 2 arrays, mostly near background
Reference: not given
Direction: higher = stronger binding
Construct (chain): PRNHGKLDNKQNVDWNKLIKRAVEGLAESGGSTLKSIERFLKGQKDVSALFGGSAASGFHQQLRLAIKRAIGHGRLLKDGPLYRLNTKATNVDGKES
`AACCTGGT` gave an E-score of 0.0745.
`GCAATACC` gave an E-score of -0.0653.
`ATGATTAG` gave an E-score of -0.0442.

Sample 3
Target: Interferon regulatory factor 5, full length, phosphomimetic (IRF5, Homo sapiens, UniProt Q13568-2, residues 1-514, K96S/S451D/S453D/S456D/S462D)
Technique: protein-binding microarray
Form: double-stranded DNA, one strand shown
Matrix: in vitro
Tested at: 250 nM
Notes: 60-bp whole probe
Added: salmon DNA 0.4 mg/ml
Reference: random background probes
Direction: higher = stronger binding
`GCCTAGCACTTAGATATCACTATCGATTAGTGCTAGGTCTTGATTCGCTTGACGCTGCTG` gave a log fluorescence of 8.98 z-score.
`GCCTAGCACTTATGTATCGGGACTGGGTTAGTGCTAGTCTTGATTCGCTTGACGCTGCTG` has a log fluorescence of 1.92 z-score.
`GCCTAGCACTCAGGACTGGGTATCGGTTAGTGCTAGGTCTTGATTCGCTTGACGCTGCTG` gave a log fluorescence of 4.26 z-score.
For `GCCTAGCACTTAGGTATCGGGTATCAGTTAGTGCTAGTCTTGATTCGCTTGACGCTGCTG`, the log fluorescence was 4.82 z-score.

Mixed results
For `PhoQ, residues 284 288 289 292 302 303 SCCLKL`, the fold induction was 5.8 (PhoP, residues 12 14 15 18 19 STHWV (Escherichia coli, UniProt P23836); Sort-seq, refers to: YFP reporter; E. coli; PhoQ-PhoP variant library, added: 10 µM Mg2+; reference: high Mg2+ state, higher = stronger signaling).

Excerpt of the above (sample 3):
`GCCTAGCACTTATGTATCGGGACTGGGTTAGTGCTAGTCTTGATTCGCTTGACGCTGCTG` has a log fluorescence of 1.92 z-score.
